{"data": "Published values gathered from unrelated publications", "note": "Numbered parts are unrelated; each lists some results of a single study. Substitutions count along the parent as printed."}
{"data": "Series 1", "target": "RNA binding protein fox-1 homolog 2, RRM domain, GST-SBP tag (RBFOX2, Homo sapiens, UniProt O43251-10, residues 100-194)", "technique": "RNA Bind-n-Seq", "molecule type": "RNA", "matrix": "in vitro", "concentration": "365 nM", "setting": "natural RNA segment, single round, ends assumed", "baseline": "no-protein control", "reading": "higher = stronger binding", "all sequences stand within": "GGGAGUUCUACAGUCCGACGAUC … UGGAAUUCUCGGGUGCCAA", "Construct (chain)": "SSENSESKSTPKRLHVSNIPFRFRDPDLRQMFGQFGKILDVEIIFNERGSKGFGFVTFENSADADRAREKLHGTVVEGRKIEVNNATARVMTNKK"}
{"Strand": "AUAAAGAAUGUAAGGGCUAUAAGUAGAAACUUUCUAUAACCUAAAUGAUGUUAUAGAAUUAUUUUUGAGCAGGAGCAGAAAGAUUAAAUAUGAUCACUUCAUACUUCUAA", "RBNS enrichment (R)": 0.768}
{"Strand": "AUGGUCAGUUAGGAUGACAAUAGUAAGUUCAUCUACAGCAUAAAAUGUGAAAUGCUUUCAUCCUCAUUGCCCAUUUCCAACUACCAUUCUGUUUCUCCUCUAUUGUUCAU", "RBNS enrichment (R)": 1.35}
{"Strand": "AAAUACAAAUGAAGUCACGUUUCCUGAGCAGUUUUUCUGAGUCUCAAACUAGGAACAAAUUCUGAGUGUACCAAUGGCUGCGAAUGCUAUGAUUUUGUGACUUCUGGUCA", "RBNS enrichment (R)": 0.342}
{"Strand": "CAUAGUGACAUCACCUGUGGAUAUUUAAUGAGUGUGGGAUGCGGGGUCUGCGGUAGAGAUGGUUUCUGGCAGCCGCAGCAGCCCCAGGUACCUAGCCUCCCCUGGCUGCU", "RBNS enrichment (R)": 0.374}
{"Strand": "CUUGUCCAGCCUCCUGCUACCGCUGCCCACCUCCUGCCUCCAUUGCCCAGGCCACACUAGUUGGCCCCAGCACUCUACCUUAGGCCCAGGCUGGCCACAGGCAGUGGGCA", "RBNS enrichment (R)": 0.343}
{"Strand": "UUUGUCAACAUGAUGGUAAAAAGGAAAGAAAUCUGUUACAAAGACAAAUUAGAGGGAAAUUUGUCCUGUUAACCACAUGCUAUUAUUCCUUCAUUCAGGGUUACUGACCU", "RBNS enrichment (R)": 0.6}
{"Strand": "UCUCUUGAUGUCCCUGGAGAGCUGAGGUCGAGACCCCAUUCAUGCAGGAGGAGGAAGAAGGAAGUGUCCAGUCACAUCCUUAGUUCUCAGAGGACUUUAUUUUCCUCUCU", "RBNS enrichment (R)": 0.385}
{"Strand": "CUCUCCCAAGAUUUCUCUUCUCUCCACACCAGACCUCGUUCAUUUGACUAACAUUUUCCAGCGCCUACUAUGUGUCAGAAACAAGUGUUUCUGCCUGGACAUCAUAAAUG", "RBNS enrichment (R)": 0.773}
{"data": "Series 2", "target": "CCNE1, cyclin fold, Cln2 fusion (human)", "technique": "yeast growth competition, sequencing", "matrix": "yeast", "setting": "weak parent motif", "baseline": "not given", "reading": "higher = stronger binding", "starting sequence": "RB1 docking peptide (human); PKPLKKLRFDIEG"}
{"Substitution": "PWPLKKLRFDIEG [K2W]", "normalised enrichment score": 0.154}
{"Substitution": "PKPLKKLRFDIPG [E12P]", "normalised enrichment score": 0.452}
{"Substitution": "PKPLKKLRFDIQG [E12Q]", "normalised enrichment score": 0.295}
{"Substitution": "PKPLKKLLFDIEG [R8L]", "normalised enrichment score": -0.662}
{"Substitution": "PKPLKKLRFDEEG [I11E]", "normalised enrichment score": 0.381}
{"Substitution": "PKNLKKLRFDIEG [P3N]", "normalised enrichment score": -0.282}
{"Substitution": "PSPLKKLRFDIEG [K2S]", "normalised enrichment score": 0.0619}
{"Substitution": "PKPLKGLRFDIEG [K6G]", "normalised enrichment score": -0.215}
{"data": "Series 3", "target": "Myc proto-oncogene protein, bHLH-zipper, MAX partner unstated (MYC, Homo sapiens, UniProt P01106, residues 368-449)", "technique": "protein-binding microarray", "molecule type": "double-stranded DNA, one strand shown", "matrix": "in vitro", "concentration": "not given", "setting": "k-mer, scored over probes, only values ≥0.25", "reading": "higher = stronger binding", "UniProt P01106, sequence (368-449, looked up)": "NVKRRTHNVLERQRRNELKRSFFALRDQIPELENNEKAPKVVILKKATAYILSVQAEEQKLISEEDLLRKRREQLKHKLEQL"}
{"Strand": "TGTTAACA", "E-score": 0.263}
{"Strand": "GGCGTGGA", "E-score": 0.385}
{"Strand": "CAAGCACG", "E-score": 0.379}
{"Strand": "ACGCTTCA", "E-score": 0.273}
{"Strand": "ATAACATG", "E-score": 0.28}
{"Strand": "GCGTGAAC", "E-score": 0.256}
{"Strand": "CCGCCACG", "E-score": 0.398}
{"Strand": "CGCATGAA", "E-score": 0.281}
{"data": "Further values, each from its own experiment"}
{"Structure (SMILES)": "FC(F)(F)c1ccc(/C=C/c2nc(COc3ccc(CCCCn4ccnn4)cc3)co2)cc1", "target": "cAMP-dependent protein kinase catalytic subunit alpha (PRKACA, Homo sapiens, UniProt P17612)", "assay": "enzyme activity, inhibitor", "conditions": "0.5 µM", "how to read": "baseline: control", "measurement": "remaining activity", "value": "101%"}
{"note": "For quick reference, copied from above (series 1):"}
{"Strand": "CUCUCCCAAGAUUUCUCUUCUCUCCACACCAGACCUCGUUCAUUUGACUAACAUUUUCCAGCGCCUACUAUGUGUCAGAAACAAGUGUUUCUGCCUGGACAUCAUAAAUG", "RBNS enrichment (R)": 0.773}
{"Strand": "AUGGUCAGUUAGGAUGACAAUAGUAAGUUCAUCUACAGCAUAAAAUGUGAAAUGCUUUCAUCCUCAUUGCCCAUUUCCAACUACCAUUCUGUUUCUCCUCUAUUGUUCAU", "RBNS enrichment (R)": 1.35}
{"Strand": "UUUGUCAACAUGAUGGUAAAAAGGAAAGAAAUCUGUUACAAAGACAAAUUAGAGGGAAAUUUGUCCUGUUAACCACAUGCUAUUAUUCCUUCAUUCAGGGUUACUGACCU", "RBNS enrichment (R)": 0.6}
